Assay results of several laboratories.
Numbered parts are unrelated; each lists some results of a single study. Changes are numbered by the printed parent chain.

Set 1 — technique: protein-binding microarray; molecule type: double-stranded DNA, one strand shown; medium: in vitro; tested at: 940 nM top; setting: 60-bp whole probe; with: salmon DNA 0.4 mg/ml; baseline: random background probes; reading: higher = stronger binding; quantity: fitted relative affinity; shared flanks, not repeated: GCCTAGCAC … GTCTTGATTCGCTTGACGCTGCTG
Target: Interferon regulatory factor 5, full length, phosphomimetic (IRF5, Homo sapiens, UniProt Q13568-2, residues 1-514, S451D/S453D/S456D/S462D)
TCACCTCTCTCTTTCCAACTGTGCTAG: 1.88 z-score
TTAGGTTTCCTTCTCCTGTAGTGCTAG: 2.35 z-score
AATGCCCTCGGTTTACAGGGGTGCTAG: -0.015 z-score
TTAGGTTTCGGACTTGGTTAGTGCTAG: 6.62 z-score
TTAGATCTCAGACAGGATTAGTGCTAG: -0.178 z-score
TCAGAAATCACCCTTGGAACTGTGCTA: 0.0436 z-score
TCACATTCCCCATTGTGACTGTGCTAG: 0.938 z-score
TCATGTTTCCTCTTTCTACTGTGCTAG: 1.74 z-score
TTAGGTTTCCTACTGCTGTAGTGCTAG: 0.692 z-score
GACGGGCTCGGTTTCGGGACGTGCTAG: 2.95 z-score
GACGGACTGGGTATCGAGACGTGCTAG: 0.739 z-score
TTAGATAACGGGACTGGATTAGTGCTA: -0.158 z-score
TCAACTCTCTGCTTGTGACTGTGCTAG: 1.01 z-score
TCCATTTTTACCCTCCTTACGTGCTAG: 1.71 z-score
GACTATCTCAGTCTCGAGACGTGCTAG: 1.39 z-score
TTAGGTATCGACACCGGGTTAGTGCTA: 5.05 z-score
AAGTTTCTCCTTTCCAAATAGTGCTAG: 4.98 z-score
TCAAGTATTTATCTGCAACTGTGCTAG: 0.303 z-score
CACCAGCGAGGGCCCGGGAGGTGCTAG: -0.946 z-score

Set 2 — technique: RNA Bind-n-Seq; molecule type: RNA; medium: in vitro; tested at: not given; baseline: input RNA pool; reading: higher = stronger binding; quantity: bound/input enrichment
Target: RING finger protein unkempt homolog, zinc fingers 1-6, GST-SBP tag (UNK, Homo sapiens, UniProt Q9C0B0, residues 30-357)
Chain of UniProt Q9C0B0 (30-357, looked up): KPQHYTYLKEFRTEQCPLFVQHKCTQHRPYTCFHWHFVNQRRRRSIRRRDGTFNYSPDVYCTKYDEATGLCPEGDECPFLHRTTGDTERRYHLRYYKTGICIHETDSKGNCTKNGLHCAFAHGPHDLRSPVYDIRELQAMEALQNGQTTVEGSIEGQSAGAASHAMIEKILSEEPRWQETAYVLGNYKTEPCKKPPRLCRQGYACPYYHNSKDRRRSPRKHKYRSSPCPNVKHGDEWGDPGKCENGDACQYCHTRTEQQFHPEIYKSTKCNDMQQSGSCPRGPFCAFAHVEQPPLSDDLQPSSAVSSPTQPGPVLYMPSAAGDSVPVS
Setting: RNA with constant flanks, human and mouse sites, ends assumed
Shared flanks, not repeated: GGGAGUUCUACAGUCCGACGAUC … CAACAGAGGAUUGAGCAUCA
CCCCGGCAAGCCACAGGAAGGAGGGGAGAGACAGGCAGCCCAGCAGUGUGGAGACCCUGCCACAGCCAGAGGAGGGCAGAGGGAGAAUCCAAGGGUUGAGAGCCAGUGGCGGGUGAUGGC: 0.288 ratio
GGUAAGCUCAUCGCAGUGAUCGGAGACGAGGACACGGUGACUGGUUUCCUGCUGGGCGGCAUAGGGGAGCUUAACAAGAACCGCCAUCCCAAUUUCCUGGUGGUGGAGAAGGAUACAACC: 0.174 ratio
GUUCAACGUCCUCGAUGUUUUUUUGACAUUGCCAUUAACAAUCAACCUGCUGGAAGAGUUGUCUUUGAAUUAUUUUCUGAUGUGUGCCCCAAAACAUGCGAGAACUUUCGUUGUCUUUGU: 0.188 ratio
ACCCCCUCUAGGAAGUUAUUUUAUGUAGCAUGUUUGCAUAUACGCAUUGUGUGGCAUGUGCAUAGAGGCUUGUUUUACACCUAUCUGCUCAUUUUGUUGUGUUAGCUUUUCUGGUUUAUU: 1.38 ratio
GCAGUGGAAUGCAGUUAUAUUUGGACCAGAAGGGACACCUUUUGAAGAUGGUACUUUUAAACUAGUAAUAGAAUUUUCUGAAGAAUAUCCAAAUAAACCACCAACUGUUAGGUUUUUAUC: 3.41 ratio
GAUGAUGAAUCUAAAGUAUAUAGUAUGAAACUUGAUGUUGAAUUCAUAAAGACUUUUUCUAUCACACACAAGUUCUUUCAUUAACAUAGUGAAUUAUAACAGCACUGUUUCUACAUUUGC: 0.461 ratio
GAGAAAGACUUCCUAUGGAGCCACAGACACUACUGCGUAACUAUUCCUGAAAUCCUACCCAAAUUGCUUCUGUCUGUCAAGUGGAAUUCCAGAGACGAAGUGGCCCAGAUGUACUGCUUA: 0.223 ratio
CGCUUCGACGGGUAUGUCAUUGAUGGUGCCACUGCUCUUUGGUGUGCAGCUGGAGCAGGACAUUUUGAAGUUGUUAAACUUCUAGUCAGCCAUGGAGCCAACGUGAACCAUACCACAGUA: 0.163 ratio

Set 3 — technique: DHFR PCA, deep sequencing; medium: yeast; with: (+)-ABA 1.4 µM; baseline: wild-type fitted maximum; reading: higher = stronger binding; quantity: relative binding score
Target: ABI1, truncated, D143A, DHFR fusion (Arabidopsis thaliana)
Setting: methotrexate growth selection, single substitutions
Starting sequence: PYL1, truncated, DHFR fusion (Arabidopsis thaliana); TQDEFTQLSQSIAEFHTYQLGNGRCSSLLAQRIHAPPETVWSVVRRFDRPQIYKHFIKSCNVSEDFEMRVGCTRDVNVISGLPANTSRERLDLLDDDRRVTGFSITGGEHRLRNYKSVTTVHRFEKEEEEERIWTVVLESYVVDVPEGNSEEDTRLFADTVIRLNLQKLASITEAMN
T17F: -14.9%
R155I: 25.9%
E4M: 64.2%
K116H: 32.4%
D48L: -9.58%
T160C: 20.5%
S150Y: -23.7%
V121Y: -11.5%
F157Y: 32.7%
V136I: 61.8%
S150H: 4.55%
S104F: -2.84%
N61Y: 58.6%
L138F: 43.7%
F56N: 1.33%
A175C: 38.8%
D75G: 1.95%
I57L: 23.3%

Set 4 — technique: RNA Bind-n-Seq; molecule type: RNA; medium: in vitro; tested at: 200 nM; setting: whole 134-nt RNA, ends assumed; with: 150 mM KCl; baseline: input library; reading: higher = stronger binding; quantity: log2 enrichment
Target: Fragile X messenger ribonucleoprotein 1, C-terminal low-complexity region (Fmr1, Mus musculus, UniProt P35922)
Shared flanks, not repeated: GGGAGUUCUACAGUCCGACGAUC … UGGAAUUCUCGGGUGUCAAGG
AGUCCUGUGCUACACAUCGUAUGUACCGAAUCGGUUUUGGGGUUUUGGGGUUUUGGGAAAGUAUUAUGUUACGCCGUUCGGAUCUGCACU: -0.0303
ACCAUGCAGGUGGGCAUCUUUGGGAAGUGGGGCAAGGGGGGGAUAGGGAGGGGGAUAACACUUUGGGAACAGGUGGUCCCAGGUCGUUUC: 0.904
CACAGACAACACGCACCCACACAGACACAGAGGGAAGGGGUUGGGAUGGGGACAGGGUGCACAGCAGGGCGAAAUAGGACCCCAGCCCCU: 1.07
GUCCUGUGCUACACAUCGUAUGUACCGAAUCAAAUUUUUAAACCCAAAUUUUUUUAAAAAAGUAUUAUGUUACGCCGUUCGGAUCUGCAC: -0.119
AAGUCCUGUGCUACACAUCGUAUGUACCGAAUCGGGGUUUGGGGUUUGGGGUUUGGGAAAGUAUUAUGUUACGCCGUUCGGAUCUGCACU: 0.693
GUCCUGUGCUACACAUCGUAUGUACCGAAUCGGGGAAAAAGGAAAAAGGGAAAAAGGGAAAGUAUUAUGUUACGCCGUUCGGAUCUGCAC: -0.435
UAACUUUAGAGGAGGAUCUGAUGGAUAUGGCAGUGGACGUGGAUUGGGGGAUGGCUAUAAUGGGUAUGGAGGAGGACCUGGAGGUGGCAA: 0.256
AAGUCCUGUGCUACACAUCGUAUGUACCGAAUCGGCCCCGGGCCCCGGGGCCCCGGGAAAGUAUUAUGUUACGCCGUUCGGAUCUGCACU: -0.435
UAACUUUAGAGGAGGAUCUGAUGGAUAUGGCAGUGGACGUGGAUUUGGGGAUGGCUAUAGUGGGUAUGGAGGAGGACCUGGAGGUGGCAA: 0.343

Some of these lines once more (set 1):
TTAGGTTTCGGACTTGGTTAGTGCTAG: 6.62 z-score
TCATGTTTCCTCTTTCTACTGTGCTAG: 1.74 z-score
TCAAGTATTTATCTGCAACTGTGCTAG: 0.303 z-score
TCAACTCTCTGCTTGTGACTGTGCTAG: 1.01 z-score
TTAGGTATCGACACCGGGTTAGTGCTA: 5.05 z-score
TTAGGTTTCCTACTGCTGTAGTGCTAG: 0.692 z-score
TCACCTCTCTCTTTCCAACTGTGCTAG: 1.88 z-score
